Results of several laboratories.
Every numbered part comes from another study and shows a few of its results, in no order. Changes are numbered by the printed parent chain.

Sample 1 — method: RNA Bind-n-Seq; form: RNA; sample: in vitro; concentration: 365 nM; reference: no-protein control; reading: higher = stronger binding
Target: RNA binding protein fox-1 homolog 2, RRM domain, GST-SBP tag (RBFOX2, Homo sapiens, UniProt O43251-10, residues 100-194)
Notes: natural RNA segment, single round, ends assumed
All sequences stand within: GGGAGUUCUACAGUCCGACGAUC … UGGAAUUCUCGGGUGCCAA
Target sequence (chain): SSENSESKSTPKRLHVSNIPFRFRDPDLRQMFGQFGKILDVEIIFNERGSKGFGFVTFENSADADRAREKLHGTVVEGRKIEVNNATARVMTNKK
`GACCUGGACCUGGACCUGGACCUACAGCGGGGACUUAAAUGCCUUCUUAUCCAAUAUAUCUUCUCAGAUGGGAUGACUGCGGGUCAGUGUACAGGAAGAGGCAGGCACUG`: “RBNS enrichment (R)” 0.317.
Under “RBNS enrichment (R)”, `UGCAUGAAAAUUCUGUUAGCUGUGUGGUGAACUGUCUACCCUCGCGGAUCUUGUAUUUCGUGCCGGGAUGGGGUUGAGAUAGAGAGUAUAGUGAAGAAGAGUCAAGCGUC` is recorded as 6.93.
Under “RBNS enrichment (R)”, `GACUUUGCUAAGUUCAUCUCAGGGUUAUCUGAGCCUUGACCAAGUUUAUCCUAAGGGAAUACCACUUUGCUCCCUGUGCAUAGUUUAGGAACUGUAGUCCUAGGAGGAAA` is recorded as 0.329.
`CUCUGAGGGCAUCUGAAUGCAUAUAGUGUGUGUGCAUGAACACAGCACUGGACAGUACACUCUGGUGUACACACUUGCGCACACAUAUACACACACAAUAAUUUUUUAAA`: “RBNS enrichment (R)” 0.62.
For `AGCAUUUAUUUGGUGGCAGAAUGUUUGCCUAGGUACAGAAUUAAUAGCCCUUAGCAACGACUGCUGCUGGUGUGUAUUUUUGUAAAUGUUAUGCACUCUCUGAAAGGAAA`, “RBNS enrichment (R)” read 1.33.
`GUCAGGUCUGUGGCUCUGAGGCCUUCACUUAGAGCUGUCAGUGUGAUUUCCAGGAUGAGUCAGGGUGUGCUGGGCCCUCCAGGAUUUGAGAGAGGGAGAGAAGGCCCUUG`: “RBNS enrichment (R)” 0.874.
For `AUAAUGCUAAUGAUUGUACUUAGUACAUUUUUAUACUUUUAUGAUAUUUUACUGAUUGGAAAUGUCAUCCUUUAUUAAAAAUAAACAUGGUUUUCCAUAGUUGCCUGCCA`, “RBNS enrichment (R)” read 0.685.
`UUUUAACAAAGACAAUACACACAUAAGCACAUUAAAACAGGAAUGCUAUGAUACUGUUUAGCAUUUGCUCUGCUGCCUAUCUUUCUCUGUUUUUAAUUAACAAUUGGAUU` — result for “RBNS enrichment (R)”: 1.02.
`AACCGUUUCCUUCUUGUCACUGAAAUAUAUGGACCUUAAUUUGUAUCCUGACUGACUCAACCCAGCAGAGCAUAAAUUGACUUGAGAGCCUUACCUUUGAUGUCUGAAAU`: “RBNS enrichment (R)” 0.249.
For `GGCCGAGUUUGGGCCCAUGGAGCACACCCAGGCUGUGGACUAUGUUAAGAAGCUCAUGACCAAGGGCCGCUACUCGCUGGAUGUAUGGAGCUAGGAGCUGCCGCCCCCCA`, “RBNS enrichment (R)” read 0.922.
`CUGAGCUGGGUGGGAGGCCAUCCUGGCGACCACUGCCCAUUCCAUUCACCCCUCACUGUACCUGCCCUAGAACCUGGGCCUAGGCCACAGGGGCAGGGAGAAGAGAAGGC`: “RBNS enrichment (R)” 0.17.
`CCAUUGGAAUUGAGGGUAUGUACAGAGAAGUUGGUGUCAAUGCCAUUUAAUAAGUCAUAUUUUUUCACAAAUAAGGAAAAAUCAUUUUAAUGAGAAUUUUAAGUAUUUGC` — result for “RBNS enrichment (R)”: 0.362.

Sample 2 — method: competition protein-binding microarray; form: double-stranded DNA, one strand shown; sample: in vitro; concentration: 2 µM; added: Pho4 competitor, 0.05 µM; reading: higher = stronger binding; all sequences stand within: … GTCTTGATTCGCTTGACGCTGCTG
Target: Centromere-binding protein 1, full length, His-tagged (CBF1, Saccharomyces cerevisiae, UniProt P17106, residues 1-351)
Sequence of UniProt P17106 (whole entry, looked up): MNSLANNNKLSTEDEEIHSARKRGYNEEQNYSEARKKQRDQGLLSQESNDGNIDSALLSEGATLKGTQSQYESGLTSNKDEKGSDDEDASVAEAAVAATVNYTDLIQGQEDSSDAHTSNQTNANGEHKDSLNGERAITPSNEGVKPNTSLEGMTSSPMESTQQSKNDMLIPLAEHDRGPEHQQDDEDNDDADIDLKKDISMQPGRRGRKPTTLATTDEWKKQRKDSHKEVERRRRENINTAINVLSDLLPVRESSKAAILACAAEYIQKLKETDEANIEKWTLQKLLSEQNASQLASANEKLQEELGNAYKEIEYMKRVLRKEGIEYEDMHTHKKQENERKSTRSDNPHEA
Notes: whole 60-bp probe, lowest competitor level
`CGGAAAGGGCTGGGCCACGTGGGCGGCTGCTGAGTG` gave a fluorescence intensity of 673 a.u.
For `CTTGAATAGTCATCGCACGATTCTGGAGTGTAAGCA`, the fluorescence intensity was 72.9 a.u.
`GAACAGTGCCTGCACCTCGTGTATCGCGATGCGGAG` gave a fluorescence intensity of 82.3 a.u.
With `ACAAAAATGACGGAACTCGTGACTCGAGTCAAAAGC` the fluorescence intensity was 710 a.u.
The fluorescence intensity of `CGTCCTAGCGATTGATAGGTGGGTGCCATGAGGAAG` is reported as 73.3 a.u.
The fluorescence intensity of `CAAGAGACTCGCGACCACGTGGAACGATCCAACTAC` is reported as 839 a.u.
The fluorescence intensity of `CTCTAATTTTACCATCACGTGCCGATTCTAGTCATT` is reported as 6300 a.u.
With `GGTGGAAAGTGAGTGCGCGTTTCTCGAGCCAAGTGC` the fluorescence intensity was 70.3 a.u.
With `CGGGGTTAAGTTTGTCACGCAACTTGCTTGCAGCAG` the fluorescence intensity was 111 a.u.
`GTAAATGCCGCCCATCACGTGGTGAAGAAAAGAAAC` has a fluorescence intensity of 4900 a.u.
`GTCTTGTCTCATTGTCACATGACTTTCCCCACTTCA` has a fluorescence intensity of 2620 a.u.
`CTTCTGTAAATTTGTCACCCTACTTGACGCGCCCCG` gave a fluorescence intensity of 93.2 a.u.
`CTAGCCCATAAAATGGTCGTGCGGATTAACGAGCAA` gave a fluorescence intensity of 75 a.u.
The fluorescence intensity of `ATCTTGGGGATTACCCACGTGCTGTAACAAACGGTT` is reported as 1540 a.u.
The fluorescence intensity of `CATACCCAACCTTGTCACGGTACTTAAGATATTTGT` is reported as 227 a.u.
`GGCTAAAACGAAGCCATCGTGCAAAATGGTAAGTTC` has a fluorescence intensity of 68.8 a.u.
For `CTTCTGTAAATTTGGCATGTGGGTGGACGCGCCCCG`, the fluorescence intensity was 99.9 a.u.
With `TGCGCAACAACTTGTCACGAAACTTTATGTCTAGAA` the fluorescence intensity was 81.6 a.u.
With `GGCCGCTCAAGGGAGCACGTGACCTCGGCCTCTGGC` the fluorescence intensity was 16800 a.u.
For `GTCTTGTCTCATTGCACAGTGGGTGTCCCCACTTCA`, the fluorescence intensity was 88.8 a.u.

Sample 3 — method: DHFR PCA, deep sequencing; sample: yeast; added: (+)-ABA 2500 µM; reference: wild-type fitted maximum; reading: higher = stronger binding
Target: ABI1, truncated, D143A, DHFR fusion (Arabidopsis thaliana)
Notes: methotrexate growth selection, single substitutions
Starting sequence: PYL1, truncated, DHFR fusion (Arabidopsis thaliana); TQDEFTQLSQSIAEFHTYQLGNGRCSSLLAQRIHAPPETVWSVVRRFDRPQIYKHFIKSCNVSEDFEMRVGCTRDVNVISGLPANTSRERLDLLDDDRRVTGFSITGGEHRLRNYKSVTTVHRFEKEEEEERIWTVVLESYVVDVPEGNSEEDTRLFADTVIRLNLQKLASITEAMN; partner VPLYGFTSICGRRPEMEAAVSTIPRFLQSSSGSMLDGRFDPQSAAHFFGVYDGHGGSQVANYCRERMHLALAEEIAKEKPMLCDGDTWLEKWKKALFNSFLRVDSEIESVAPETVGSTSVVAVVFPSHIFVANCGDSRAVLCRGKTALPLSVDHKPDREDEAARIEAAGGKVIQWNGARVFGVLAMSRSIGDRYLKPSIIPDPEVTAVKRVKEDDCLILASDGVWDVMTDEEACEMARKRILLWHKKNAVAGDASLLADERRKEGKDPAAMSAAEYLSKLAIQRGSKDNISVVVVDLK
Under “relative binding score”, `L28R` is recorded as 100%.
`V78T` — result for “relative binding score”: 94.7%.
`P83R` — result for “relative binding score”: 20.5%.
`D48Y`: “relative binding score” 69.4%.
`F15A`: “relative binding score” 77.7%.
Under “relative binding score”, `R45Y` is recorded as 56.3%.
`Q2N` — result for “relative binding score”: 98.6%.
For `H122V`, “relative binding score” read 78.5%.
`T6L` — result for “relative binding score”: 107%.
`F103G` — result for “relative binding score”: 0.814%.
`C60N` — result for “relative binding score”: 67.4%.
Under “relative binding score”, `T1W` is recorded as 93.3%.
`P146R`: “relative binding score” 63%.
`V70Y` — result for “relative binding score”: 84.8%.
`C25H`: “relative binding score” 81.7%.
Under “relative binding score”, `R163G` is recorded as 88.1%.
For `E67K`, “relative binding score” read 95.1%.
`E128M`: “relative binding score” 103%.
`A170F`: “relative binding score” 45.1%.
`R69V`: “relative binding score” 93.4%.
Under “relative binding score”, `P146S` is recorded as 87.9%.
Under “relative binding score”, `R46C` is recorded as 98.5%.
For `R49C`, “relative binding score” read 93.3%.
`V40E`: “relative binding score” 20.8%.

Sample 4 — target: CCNF, cyclin fold, Cln2 fusion (human); method: yeast growth competition, sequencing; sample: yeast; notes: strong parent motif; reference: not given; reading: higher = stronger binding
Starting sequence: RBL2 docking peptide (human); STTRRRLFVENDS
Under “normalised enrichment score”, `F8G` is recorded as 0.606.
`S13I` — result for “normalised enrichment score”: 9.03.
Under “normalised enrichment score”, `E10F` is recorded as 8.8.
`E10I`: “normalised enrichment score” 7.16.
For `D12W`, “normalised enrichment score” read 8.08.
Under “normalised enrichment score”, `T2N` is recorded as 8.62.
`R4M` — result for “normalised enrichment score”: 4.5.
`S1W`: “normalised enrichment score” 8.18.
Under “normalised enrichment score”, `F8H` is recorded as 2.15.
Under “normalised enrichment score”, `R6Q` is recorded as 7.75.
For `D12F`, “normalised enrichment score” read 8.77.
Under “normalised enrichment score”, `T3C` is recorded as 8.04.
`V9Y` — result for “normalised enrichment score”: 9.85.
For `S1V`, “normalised enrichment score” read 8.37.
Under “normalised enrichment score”, `L7W` is recorded as 1.63.
`T2Q` — result for “normalised enrichment score”: 8.29.

Excerpt of the above (sample 2):
With `TGCGCAACAACTTGTCACGAAACTTTATGTCTAGAA` the fluorescence intensity was 81.6 a.u.
`GTAAATGCCGCCCATCACGTGGTGAAGAAAAGAAAC` has a fluorescence intensity of 4900 a.u.
For `GTCTTGTCTCATTGCACAGTGGGTGTCCCCACTTCA`, the fluorescence intensity was 88.8 a.u.
`GGCTAAAACGAAGCCATCGTGCAAAATGGTAAGTTC` has a fluorescence intensity of 68.8 a.u.
With `CGGGGTTAAGTTTGTCACGCAACTTGCTTGCAGCAG` the fluorescence intensity was 111 a.u.
For `CTTGAATAGTCATCGCACGATTCTGGAGTGTAAGCA`, the fluorescence intensity was 72.9 a.u.
`GTCTTGTCTCATTGTCACATGACTTTCCCCACTTCA` has a fluorescence intensity of 2620 a.u.
